Assay results collected from several papers.
Numbered parts are unrelated; each lists some results of a single study. Positions count from the first letter of the parent shown.

Study 1
Target: Sal-like protein 4, full length isoform B (SALL4, Homo sapiens, UniProt Q9UJQ4-2, residues 1-616)
Technique: universal PBM
Form: double-stranded DNA, one strand shown
Medium: in vitro
Tested at: not given
Notes: 8-mer, flanks averaged, mean of replicates
Direction: higher = stronger binding
Residues (chain): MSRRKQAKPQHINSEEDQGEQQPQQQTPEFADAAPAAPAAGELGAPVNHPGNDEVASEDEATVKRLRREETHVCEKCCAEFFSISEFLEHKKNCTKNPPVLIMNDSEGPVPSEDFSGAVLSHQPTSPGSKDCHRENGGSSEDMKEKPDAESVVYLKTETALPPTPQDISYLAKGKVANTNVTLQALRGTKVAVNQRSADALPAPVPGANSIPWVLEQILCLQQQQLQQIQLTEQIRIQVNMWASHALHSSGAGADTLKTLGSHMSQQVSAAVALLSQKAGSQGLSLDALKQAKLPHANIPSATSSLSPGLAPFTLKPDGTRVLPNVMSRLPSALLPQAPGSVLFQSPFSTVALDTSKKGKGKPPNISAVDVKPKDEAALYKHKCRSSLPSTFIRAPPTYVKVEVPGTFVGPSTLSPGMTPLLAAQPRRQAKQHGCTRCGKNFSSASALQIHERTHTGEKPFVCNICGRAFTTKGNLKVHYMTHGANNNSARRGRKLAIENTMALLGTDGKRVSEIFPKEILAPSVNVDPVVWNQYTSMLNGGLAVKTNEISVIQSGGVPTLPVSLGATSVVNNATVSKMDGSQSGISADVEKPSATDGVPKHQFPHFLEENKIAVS
Strand	E-score
ATTAGACC	0.02
GACCCCCC	-0.349
GCCGCCCC	-0.389
ACTCAAGA	-0.0562
ACACGCAG	-0.128
ATAAATTG	0.395
GGATGTAA	0.12
ATGGACTC	-0.0957
AATCACCA	0.0889
TCGGCCCA	-0.287
CACCCCCA	-0.00412
CGGGTAGA	-0.119
CTTCCAGC	-0.268
AAAGCGCC	-0.145
ACTGCCTC	-0.149
CGACGACG	-0.166

Study 2
Target: RNA binding protein fox-1 homolog 2, RRM domain, GST-SBP tag (RBFOX2, Homo sapiens, UniProt O43251-10, residues 100-194)
Technique: RNA Bind-n-Seq
Form: RNA
Medium: in vitro
Tested at: 365 nM
Notes: natural RNA segment, single round, ends assumed
Reference: no-protein control
Direction: higher = stronger binding
All sequences stand within: GGGAGUUCUACAGUCCGACGAUC … UGGAAUUCUCGGGUGCCAA
Construct (chain): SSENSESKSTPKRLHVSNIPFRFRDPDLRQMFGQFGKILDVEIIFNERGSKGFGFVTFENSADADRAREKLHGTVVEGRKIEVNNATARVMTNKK
Strand	RBNS enrichment (R)
UUGCCUUUUUUUCUACAGGAGUUUUGAGUGUGAAAUGAAAAUUAAAGUUUGGUACAUAUAUUUAAAAUGCACCUCUAUUUUAUAUGAUGCUUAGGGUUGAGUGGGUGAUA	1.04
CCACUCUCCGCUAAGCGGGAGGCUGCUGUUAGAGCAGGCUGCUUCCUGCCUAAAGCAGGCCCUUCGGGGCUCGCUGCACACACAUCUCUGGCUCUCCAGGCUUCGUGUUC	0.371
GGUAUAGCAUAUGUUUUUGUAAGUUUAUGCAUACAGUAAUUUUAAGUAAUUUCAGAAGAAAUUCUGCAAGCUUUUCAAAAUUGGACUUAAAAUCUAAUUCAAACUAAUAG	0.456
GAAAGUCCUGUUGAAAUGAACAAUUGUCUGCCCCACAAUCAAGAAUGUAUGUGUAAAGUGUGAAUAAAUCUCAUAUCAAAUGUCAAACUUUUACAUGUGAAUGAUUUUCU	1.14
GCCAAGAGUUCUUUAGGUGCCUCCUGUCUUAUGGCGUUGCAGGCCAGGUUAUGCCUCAUGCUGACUUGCAGAGUUCAUGGAAUGUAACUAUAUCAUCCUUUAUCCCUGAG	0.998
UUUGUGAACUUCUCAAGCACGCACUCCCGUUUCCCUCUGCUUUGCAGAGGUUUUGAUGUAUCCCUGCCGUCUGCAAGAGUCCAGAGGCUGGACUGACAGUAGGAAGUAGA	1.85
GCCCCUGCGGGACUAGCACAGCUGGGCUGUGACAGUGGCAGAGGUGGCACCCAGAGCUUCUGUUAACUUGAGCCGGGAGCUGGGUUCUUUAGCAAGAUGAGCUUCUGGGG	0.367
UUUUAAUCGGUGGCAUUAUGAGCAUCAGAACAGAUACUGAGAUAAAGGAAGAACCAAAAGCCAAGUUAAAGCUGAGAGCACAAGUGCUGCAUGGAAAGGCAAUAUCUCUG	5.17
GACCGGUUGGAAGUAGAAGAAACAUCUCUCCCUGCACCCGAAUGUCCAGUGGAGCCUCAAGUUUUCCAUCCUGCUGUUAAGUUACUUUCAAAUAGUUUAAUGUUUUAGUC	0.895
AGUGAACUUCAGCCAUAUUAAGGACGUGGUCUGUGGUUUAUCACCAGACUUGUUCACUCCAUUCAAUUAUGUCCUGAGCCUUGAAACUGUUUUAUUUAACCAUGGGGUAG	0.276
CUUAUCAAAAUACAGAUCAUUAUUGCAUAUAUGCAAAUUCUGUUUUAUUUUAUCCCUAAUAACAGAAGUCUCCCUUCCAUGGUUUUAGCGUUGCCUUUUUAAAAAGGCAC	0.491
CUUAUUUUCCCGUGGCCAGGACGCAUUUCUCUGAGUGGAAACAGGUUCUUGCAUGUGGAUGUGUGUUUCCCCAGGCAGACGGCCCCUCUCUUCCCAGCACUUCCCUGCCU	8.47

Study 3
Target: CREB3L1, bZIP domain (human)
Technique: DHFR protein complementation
Medium: yeast
Notes: single substitutions, most at no-binding floor
Reference: wild-type JUN-FOS pair
Direction: higher = stronger binding
Starting sequence: JUN, bZIP domain (human); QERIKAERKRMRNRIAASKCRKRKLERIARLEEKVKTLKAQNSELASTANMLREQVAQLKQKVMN; partner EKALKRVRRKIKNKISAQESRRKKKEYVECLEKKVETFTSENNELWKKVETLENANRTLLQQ
Substitution	binding fitness [natural log]
I28A	-1.39
T37P	-1.5
S47I	-1.36
V56K	-1.37
T48C	-1.37
V35L	-1.32
M51C	-1.39
K39F	-1.5
E33N	-1.43
N42D	-1.46
N42E	-1.38
E32R	-1.47
L52F	-1.49
V35T	-1.49
L45N	-1.46
E54M	-1.43
L59H	-1.44
A40R	-1.3
E33V	-1.39
L31A	-1.4

Study 4
Target: ABI1, truncated, D143A, DHFR fusion (Arabidopsis thaliana)
Technique: DHFR PCA, deep sequencing
Medium: yeast
Notes: methotrexate growth selection, single substitutions
Added: (+)-ABA 0 µM
Reference: wild-type fitted maximum
Direction: higher = stronger binding
Starting sequence: PYL1, truncated, DHFR fusion (Arabidopsis thaliana); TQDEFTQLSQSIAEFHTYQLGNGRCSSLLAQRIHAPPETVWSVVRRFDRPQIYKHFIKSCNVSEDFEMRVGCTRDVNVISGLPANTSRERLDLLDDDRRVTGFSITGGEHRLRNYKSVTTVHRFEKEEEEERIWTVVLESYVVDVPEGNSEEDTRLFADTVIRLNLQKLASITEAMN; partner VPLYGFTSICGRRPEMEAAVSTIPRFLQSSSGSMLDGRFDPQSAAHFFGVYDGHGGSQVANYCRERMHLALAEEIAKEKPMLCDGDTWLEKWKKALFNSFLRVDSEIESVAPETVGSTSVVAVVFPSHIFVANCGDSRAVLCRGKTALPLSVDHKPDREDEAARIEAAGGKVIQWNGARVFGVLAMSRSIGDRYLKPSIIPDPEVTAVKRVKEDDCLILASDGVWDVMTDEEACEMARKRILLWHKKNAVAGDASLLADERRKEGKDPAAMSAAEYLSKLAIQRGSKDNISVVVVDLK
Substitution	relative binding score
D159R	-10.3%
L164Q	4.38%
E125R	23.6%
T6M	33.6%
L112I	3.05%
T1A	21.3%
N77L	26.4%
E67C	15.3%
R24L	4.83%
T120S	55.8%
V43E	2.1%
L94C	-0.84%
L156V	7.26%
D65M	7.86%
N61D	30.8%
H110S	43.1%
D48W	-7.29%
E4I	37.3%
G81R	0.451%

Study 5
Target: Phosphate system positive regulatory protein PHO4, full length, GST-tagged (PHO4, Saccharomyces cerevisiae, UniProt P07270, residues 1-312)
Technique: competition protein-binding microarray
Form: double-stranded DNA, one strand shown
Medium: in vitro
Tested at: 2 µM
Notes: whole 60-bp probe, lowest competitor level
Added: Cbf1 competitor, 0.05 µM
Direction: higher = stronger binding
All sequences stand within: … GTCTTGATTCGCTTGACGCTGCTG
Construct (chain): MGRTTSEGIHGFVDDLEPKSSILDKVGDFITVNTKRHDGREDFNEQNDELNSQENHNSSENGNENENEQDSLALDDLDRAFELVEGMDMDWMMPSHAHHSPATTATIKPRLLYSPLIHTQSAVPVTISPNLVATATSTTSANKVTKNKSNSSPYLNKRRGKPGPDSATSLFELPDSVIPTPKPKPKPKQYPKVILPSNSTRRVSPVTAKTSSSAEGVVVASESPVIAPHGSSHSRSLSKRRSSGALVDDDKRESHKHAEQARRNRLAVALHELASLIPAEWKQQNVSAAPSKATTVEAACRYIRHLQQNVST
Strand	fluorescence intensity [a.u.]
TAAGGGAATGTCCATCACGTGAAGGAAAATTCAAGT	12800
CATACCCAACCTTGTCACGTGGGTGAAGATATTTGT	20600
AAGTTAAAACCTGTTGTCGTGGGTAAATATGATAGT	7720
TCCTGGGCGGCTTAAAACGTGAGGAAAATTGTACTG	10000
TGCGCAACAACTTGAATAGTGGGTGTATGTCTAGAA	4460
CGGGGTTAAGTTTGCGTAGTGGGTGGCTTGCAGCAG	4660
TTCTTTTCCCTTTAACATGTGGAGCATAGCAGGCTC	8590
GTCTTGTCTCATTGACTTGTGGGTGTCCCCACTTCA	6000
TGGTTAACTAAACGTAATGTGACAGTATCATTGAAA	4220
AAAGCGGTAATTTGGATCGTGGGTGCAGATATCTAT	10100
AAAGCGGTAATTTTTCACGTGGAGTCAAATATCTAT	13400
CTAACGAAGGTTTGACTTGTGGGTGACAAGCCAAGT	4120
AGGGCCGGTTGCCGTCACGTGCGGAAAACTATCTCC	14300
ATCGTTTTGTTGACCAGCATGATAAATTCTGGAGCC	4320
TGCGCAACAACTTGCACAGTGGGTGTATGTCTAGAA	4500
AATCACAGATTGTTAGCCTGATGTATACAGTAAATT	3360
CGTCCTAGCGATTGAGCAGTGGGTGCCATGAGGAAG	6460
TGCGCAACAACTTTTCACGTGGTATTATGTCTAGAA	15100
CTTCTGTAAATTTGCGTGGTGGGTGGACGCGCCCCG	5470
CTAAATCCGCTTCTGCTCGTGGTGAGTACTTGCGCG	9880
TAGTCGGAGTAGGCACACAATTCAGGGTTGTTGATC	4430
AACTATCTGAAAATTCACGTGATGGTCATTTGAGTA	13200
AAGGCAATCAGGATGCACGTCGCCGTAAGATTGCAA	6150
AGTTATCTAAGATTCGTCGTGCTTTAAGAGACTTGT	5490
CTTCTGTAAATTTGGTTCGTGGGTGGACGCGCCCCG	6630

Study 6
Target: human cyclin B2
Effect on: peptide binding
Technique: yeast competitive growth sequencing
Form: peptide
Organism: Saccharomyces cerevisiae
Strain: cyclin B2-Cln2 fusion
Tested at: concentration not given
Notes: RxL motif peptides
Direction: direction not given
Sequence	binding enrichment score
FVPQRKLEVSTED	-0.373
PPARRRLRLSVDE	0.481
PRARKRLELGNLG	0.825
ARYKRKLLINDFG	0.81

Study 7
Target: Histone acetyltransferase KAT6A, winged helix 1, GST fusion (KAT6A, Homo sapiens, UniProt Q92794, residues 1-85)
Technique: protein binding microarray
Form: double-stranded DNA, one strand shown
Medium: in vitro
Tested at: not given
Notes: 8-mer, flanks averaged, mean of 2 arrays, mostly near background
Reference: not given
Direction: higher = stronger binding
Target sequence (chain): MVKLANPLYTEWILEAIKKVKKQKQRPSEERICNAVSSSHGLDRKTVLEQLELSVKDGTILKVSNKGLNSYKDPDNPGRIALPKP
Strand	E-score
GAGACAGA	-0.242
AATCGGCG	0.336
GGAAGCAA	-0.157
GTAGCCAA	-0.148
AACCGTTA	0.0647
GAATACTC	0.0169
GGGCTCAC	-0.0413
CTTCCCCA	-0.148
GTTCGTGA	-0.101
GGCGAATA	0.17
CCCCCTTC	-0.142
CAATATAG	-0.0792
GAGCCCCA	-0.169
GAGTTCGA	-0.0959
ATGATGGC	-0.0115
CGTAGGTA	0.111
AGTAGACA	-0.0515
AAAAACCG	0.0979
AAGGACAG	-0.0471
AGTCCAAG	-0.0873
CGCCCACC	-0.0724
AATGTCAT	-0.0408
CGATTGTA	-0.0283

For quick reference, copied from above (study 4):
Substitution	relative binding score
D159R	-10.3%
L164Q	4.38%
E125R	23.6%
T6M	33.6%
L112I	3.05%
T1A	21.3%
N77L	26.4%
E67C	15.3%
R24L	4.83%
T120S	55.8%
V43E	2.1%
L94C	-0.84%
L156V	7.26%
D65M	7.86%
N61D	30.8%
H110S	43.1%
